Results of several laboratories.
Numbered parts are unrelated; each lists some results of a single study.

Block 1
Target: Histone acetyltransferase KAT6A, winged helix 1, GST fusion (KAT6A, Homo sapiens, UniProt Q92794, residues 1-85)
Technique: protein binding microarray
Molecule type: double-stranded DNA, one strand shown
Matrix: in vitro
Tested at: not given
Notes: 8-mer, flanks averaged, mean of 2 arrays, mostly near background
Relative to: not given
Direction: higher = stronger binding
Residues (chain): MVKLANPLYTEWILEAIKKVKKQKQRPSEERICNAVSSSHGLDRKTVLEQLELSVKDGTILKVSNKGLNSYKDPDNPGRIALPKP
The E-score of `TGGATTAA` is reported as -0.221.
`AGTTATTA` has an E-score of -0.206.
For `CGGGCACA`, the E-score was 0.0118.

Block 2
Target: Interferon regulatory factor 5, full length, phosphomimetic (IRF5, Homo sapiens, UniProt Q13568-2, residues 1-514, S451D/S453D/S456D/S462D)
Technique: protein-binding microarray
Molecule type: double-stranded DNA, one strand shown
Matrix: in vitro
Tested at: 940 nM top
Notes: 60-bp whole probe
Together with: salmon DNA 0.4 mg/ml
Relative to: random background probes
Direction: higher = stronger binding
For `GCCTAGCACGACGGTACCCTTATCCTGACGTGCTAGGTCTTGATTCGCTTGACGCTGCTG`, “fitted relative affinity” read 0.254 z-score.
For `GCCTAGCACGACGATTTGAGTCTCGAGACGTGCTAGGTCTTGATTCGCTTGACGCTGCTG`, “fitted relative affinity” read 1.07 z-score.
`GCCTAGCACATATATTCATATATATATGAGTGCTAGGTCTTGATTCGCTTGACGCTGCTG` — result for “fitted relative affinity”: 0.263 z-score.
`GCCTAGCACTTAGGTAACCTTTTCCTTTAGTGCTAGGTCTTGATTCGCTTGACGCTGCTG` — result for “fitted relative affinity”: -0.0153 z-score.

Block 3
Target: RNA binding protein fox-1 homolog 2, RRM domain, GST-SBP tag (RBFOX2, Homo sapiens, UniProt O43251-10, residues 100-194)
Technique: RNA Bind-n-Seq
Molecule type: RNA
Matrix: in vitro
Tested at: 365 nM
Notes: natural RNA segment, single round, ends assumed
Relative to: no-protein control
Direction: higher = stronger binding
Residues (chain): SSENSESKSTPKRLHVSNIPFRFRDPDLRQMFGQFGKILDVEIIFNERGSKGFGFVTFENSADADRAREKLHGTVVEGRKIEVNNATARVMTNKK
Under “RBNS enrichment (R)”, `GGGAGUUCUACAGUCCGACGAUCUCUAAGUCGGCUGUUUGGGUUGAGGAGGAGAGAACCCGAGGAAAUGACCAUGCUCUGGGGACAGGGGUACCUUAGAUUCUCUGUCUAUUUUUCCUCUAGCAAGCCAGCUGUGGAAUUCUCGGGUGCCAA` is recorded as 0.74.
`GGGAGUUCUACAGUCCGACGAUCUUCCCUUUUCCCUCUGUGGCAGUUACGAUUUUGACUUCAGUCCUGAGAAAAACUUCAGGUUUUGAAAAUCAGAUGAUGUCUUCUCCUUUUCCAAACACCACACGUUGAAAUGGAAUUCUCGGGUGCCAA`: “RBNS enrichment (R)” 0.359.
Under “RBNS enrichment (R)”, `GGGAGUUCUACAGUCCGACGAUCUAGCAUUGAUAUAUAUAUAUUAUAUAUCACCCUUUAGAUCUUGAUUUCUUGGUCAUUUCUCAACCUGAGGUGCAUAGCAUAUUCCCACAUUCCAUUUUGGUAGCAAUAUGUGGAAUUCUCGGGUGCCAA` is recorded as 0.328.

Further values, each from its own experiment
The fold induction of `PhoQ, residues 284 288 289 292 302 303 SLANIV` is reported as 3.13 (PhoP, residues 12 14 15 18 19 SGWQI (Escherichia coli, UniProt P23836); Sort-seq, refers to: YFP reporter; E. coli; PhoQ-PhoP variant library, together with: 10 µM Mg2+; relative to: high Mg2+ state, higher = stronger signaling).

For quick reference, copied from above (block 1):
`AGTTATTA` has an E-score of -0.206.
For `CGGGCACA`, the E-score was 0.0118.
